Measurements from different studies.
Numbered parts are unrelated; each lists some results of a single study.
Chain of UniProt O15530 (whole entry, looked up): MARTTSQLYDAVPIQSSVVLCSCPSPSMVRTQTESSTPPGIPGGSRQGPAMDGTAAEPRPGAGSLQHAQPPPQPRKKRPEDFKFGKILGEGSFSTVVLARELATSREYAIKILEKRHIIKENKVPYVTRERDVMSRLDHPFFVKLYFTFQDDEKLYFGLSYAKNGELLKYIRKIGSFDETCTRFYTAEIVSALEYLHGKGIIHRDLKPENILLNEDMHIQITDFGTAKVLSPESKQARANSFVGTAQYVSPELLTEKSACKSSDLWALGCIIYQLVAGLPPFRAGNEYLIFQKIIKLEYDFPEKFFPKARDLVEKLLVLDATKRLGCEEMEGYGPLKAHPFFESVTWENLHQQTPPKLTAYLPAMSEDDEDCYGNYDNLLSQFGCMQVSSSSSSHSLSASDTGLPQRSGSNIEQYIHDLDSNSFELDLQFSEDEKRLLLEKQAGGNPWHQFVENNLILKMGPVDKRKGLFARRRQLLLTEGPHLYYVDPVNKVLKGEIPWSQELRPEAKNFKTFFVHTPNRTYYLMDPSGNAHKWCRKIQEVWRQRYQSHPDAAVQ
Chain of UniProt P54764 (whole entry, looked up): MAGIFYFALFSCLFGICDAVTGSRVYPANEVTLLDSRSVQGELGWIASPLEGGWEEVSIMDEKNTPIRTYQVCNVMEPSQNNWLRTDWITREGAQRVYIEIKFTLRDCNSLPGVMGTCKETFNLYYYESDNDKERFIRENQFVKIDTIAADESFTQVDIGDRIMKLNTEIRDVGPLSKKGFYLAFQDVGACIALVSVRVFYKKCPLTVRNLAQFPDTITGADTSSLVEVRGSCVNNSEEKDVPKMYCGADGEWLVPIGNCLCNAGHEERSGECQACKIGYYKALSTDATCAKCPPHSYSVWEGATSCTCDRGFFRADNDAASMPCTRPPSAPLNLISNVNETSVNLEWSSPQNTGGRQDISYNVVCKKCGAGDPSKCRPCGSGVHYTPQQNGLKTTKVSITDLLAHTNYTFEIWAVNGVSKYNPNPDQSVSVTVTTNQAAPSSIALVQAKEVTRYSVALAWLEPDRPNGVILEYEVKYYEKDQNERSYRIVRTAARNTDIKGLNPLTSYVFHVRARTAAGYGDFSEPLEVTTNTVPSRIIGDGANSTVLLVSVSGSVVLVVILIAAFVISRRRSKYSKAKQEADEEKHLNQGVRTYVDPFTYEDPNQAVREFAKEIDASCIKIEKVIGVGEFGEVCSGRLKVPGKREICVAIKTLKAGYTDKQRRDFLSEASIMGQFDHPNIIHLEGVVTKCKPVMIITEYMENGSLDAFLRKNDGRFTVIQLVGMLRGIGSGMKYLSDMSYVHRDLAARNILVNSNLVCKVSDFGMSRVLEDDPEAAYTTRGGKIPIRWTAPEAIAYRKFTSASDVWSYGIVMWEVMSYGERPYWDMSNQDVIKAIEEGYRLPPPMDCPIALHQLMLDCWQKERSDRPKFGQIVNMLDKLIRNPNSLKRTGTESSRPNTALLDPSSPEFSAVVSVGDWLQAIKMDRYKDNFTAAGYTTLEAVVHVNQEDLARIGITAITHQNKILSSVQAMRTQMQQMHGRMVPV
Chain of UniProt Q9BZL6 (whole entry, looked up): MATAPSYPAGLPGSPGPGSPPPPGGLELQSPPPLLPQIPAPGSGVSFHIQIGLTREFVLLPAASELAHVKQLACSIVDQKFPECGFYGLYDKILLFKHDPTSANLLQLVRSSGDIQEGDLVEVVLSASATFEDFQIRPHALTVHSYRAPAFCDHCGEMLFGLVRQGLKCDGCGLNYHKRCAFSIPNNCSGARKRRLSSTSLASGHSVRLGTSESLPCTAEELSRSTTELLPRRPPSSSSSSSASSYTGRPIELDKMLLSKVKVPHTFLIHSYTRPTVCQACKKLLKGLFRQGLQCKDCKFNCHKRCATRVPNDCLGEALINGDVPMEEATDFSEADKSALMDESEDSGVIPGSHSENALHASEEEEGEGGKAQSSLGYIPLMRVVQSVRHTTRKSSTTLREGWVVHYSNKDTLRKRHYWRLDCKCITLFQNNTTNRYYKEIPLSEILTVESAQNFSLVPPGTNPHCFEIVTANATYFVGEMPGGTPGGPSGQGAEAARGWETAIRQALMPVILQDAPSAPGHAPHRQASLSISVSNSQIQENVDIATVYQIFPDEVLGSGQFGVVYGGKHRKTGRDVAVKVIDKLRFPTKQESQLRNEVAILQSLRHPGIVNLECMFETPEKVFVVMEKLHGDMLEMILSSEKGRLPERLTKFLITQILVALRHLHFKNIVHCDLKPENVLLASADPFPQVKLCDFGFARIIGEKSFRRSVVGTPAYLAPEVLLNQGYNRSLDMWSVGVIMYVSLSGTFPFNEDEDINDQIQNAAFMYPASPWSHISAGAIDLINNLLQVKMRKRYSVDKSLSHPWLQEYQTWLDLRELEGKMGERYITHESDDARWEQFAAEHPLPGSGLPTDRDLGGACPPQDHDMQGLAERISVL
Chain of UniProt O43781 (whole entry, looked up): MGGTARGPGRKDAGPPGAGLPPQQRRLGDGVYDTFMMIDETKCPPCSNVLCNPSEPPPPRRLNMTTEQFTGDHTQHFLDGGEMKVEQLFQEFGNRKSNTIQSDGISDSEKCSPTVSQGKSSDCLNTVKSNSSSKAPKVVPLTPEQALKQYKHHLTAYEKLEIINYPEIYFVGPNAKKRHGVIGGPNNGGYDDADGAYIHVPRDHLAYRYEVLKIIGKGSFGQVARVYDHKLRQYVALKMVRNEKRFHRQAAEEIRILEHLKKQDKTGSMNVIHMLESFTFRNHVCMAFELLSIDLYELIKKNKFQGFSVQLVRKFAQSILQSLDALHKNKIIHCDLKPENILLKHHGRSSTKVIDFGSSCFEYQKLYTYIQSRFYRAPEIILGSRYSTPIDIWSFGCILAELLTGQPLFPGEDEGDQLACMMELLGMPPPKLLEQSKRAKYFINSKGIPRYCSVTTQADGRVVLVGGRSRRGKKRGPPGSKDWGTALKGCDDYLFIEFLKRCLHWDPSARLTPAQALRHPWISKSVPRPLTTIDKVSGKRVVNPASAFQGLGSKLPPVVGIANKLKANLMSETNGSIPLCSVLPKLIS
Chain of UniProt P54760 (whole entry, looked up): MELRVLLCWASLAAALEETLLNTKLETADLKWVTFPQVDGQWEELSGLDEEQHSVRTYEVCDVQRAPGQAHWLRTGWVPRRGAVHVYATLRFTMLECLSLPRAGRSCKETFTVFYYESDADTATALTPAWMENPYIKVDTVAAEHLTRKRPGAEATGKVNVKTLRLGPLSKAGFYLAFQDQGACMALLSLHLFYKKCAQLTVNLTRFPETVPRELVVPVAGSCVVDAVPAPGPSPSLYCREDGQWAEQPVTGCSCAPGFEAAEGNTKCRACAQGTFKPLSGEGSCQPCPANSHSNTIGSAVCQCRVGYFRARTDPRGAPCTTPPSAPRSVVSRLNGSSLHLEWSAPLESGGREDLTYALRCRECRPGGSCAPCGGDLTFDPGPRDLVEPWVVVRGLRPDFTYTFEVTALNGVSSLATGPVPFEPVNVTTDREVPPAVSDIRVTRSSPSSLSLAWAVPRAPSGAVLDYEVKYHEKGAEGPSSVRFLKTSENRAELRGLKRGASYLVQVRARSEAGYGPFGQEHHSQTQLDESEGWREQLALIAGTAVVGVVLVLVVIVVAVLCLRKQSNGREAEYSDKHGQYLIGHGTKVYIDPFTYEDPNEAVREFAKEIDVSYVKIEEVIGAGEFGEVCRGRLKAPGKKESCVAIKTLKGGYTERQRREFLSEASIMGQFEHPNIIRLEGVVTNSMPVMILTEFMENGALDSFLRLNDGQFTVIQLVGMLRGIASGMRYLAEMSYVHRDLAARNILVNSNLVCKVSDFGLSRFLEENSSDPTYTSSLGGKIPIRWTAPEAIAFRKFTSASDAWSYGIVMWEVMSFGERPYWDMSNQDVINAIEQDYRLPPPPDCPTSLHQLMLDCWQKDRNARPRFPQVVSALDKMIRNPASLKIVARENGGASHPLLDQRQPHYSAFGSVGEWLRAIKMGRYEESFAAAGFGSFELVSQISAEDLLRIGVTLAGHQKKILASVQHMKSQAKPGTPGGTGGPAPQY
Chain of UniProt P23443 (whole entry, looked up): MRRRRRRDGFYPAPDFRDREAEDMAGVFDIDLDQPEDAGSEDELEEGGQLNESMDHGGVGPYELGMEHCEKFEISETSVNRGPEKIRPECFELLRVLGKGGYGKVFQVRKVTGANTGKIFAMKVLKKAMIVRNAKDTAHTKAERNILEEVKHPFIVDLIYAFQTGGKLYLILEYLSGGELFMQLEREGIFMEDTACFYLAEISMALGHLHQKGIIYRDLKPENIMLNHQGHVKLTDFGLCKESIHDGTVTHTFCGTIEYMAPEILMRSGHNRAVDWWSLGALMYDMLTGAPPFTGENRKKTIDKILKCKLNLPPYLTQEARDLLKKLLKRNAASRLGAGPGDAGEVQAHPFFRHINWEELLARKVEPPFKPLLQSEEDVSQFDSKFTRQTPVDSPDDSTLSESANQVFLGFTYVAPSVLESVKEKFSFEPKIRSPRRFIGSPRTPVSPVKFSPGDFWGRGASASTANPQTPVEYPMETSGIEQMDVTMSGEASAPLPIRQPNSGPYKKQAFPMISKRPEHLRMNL
Chain of UniProt P15735 (whole entry, looked up): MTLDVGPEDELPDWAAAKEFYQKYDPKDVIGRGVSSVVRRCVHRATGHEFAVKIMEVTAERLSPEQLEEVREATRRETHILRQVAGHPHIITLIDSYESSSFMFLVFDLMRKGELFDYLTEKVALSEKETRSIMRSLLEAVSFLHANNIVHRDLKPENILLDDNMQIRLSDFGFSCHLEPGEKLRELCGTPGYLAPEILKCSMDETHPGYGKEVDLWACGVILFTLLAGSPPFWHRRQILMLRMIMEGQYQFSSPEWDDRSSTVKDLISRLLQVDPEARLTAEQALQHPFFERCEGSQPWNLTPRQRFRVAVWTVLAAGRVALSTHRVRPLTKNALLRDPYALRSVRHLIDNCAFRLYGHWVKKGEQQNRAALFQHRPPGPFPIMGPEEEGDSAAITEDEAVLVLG

Set 1
Structure (SMILES): Cc1noc([C@H]2C[C@@H](c3ccc(C(F)(F)F)cc3)CN(C(=O)N3CCS(=O)(=O)C3)C2)n1
Observed: cell-free assay
Method: competition with immobilised ligand
Concentration: 1 µM
| target | remaining binding |
| --- | --- |
| Tyrosine-protein kinase JAK2, JH1 (JAK2, Homo sapiens, UniProt O60674) | 100% |
| GRK7 (Homo sapiens, UniProt Q8WTQ7) | 100% |
| Non-receptor tyrosine-protein kinase TYK2, JH2 (TYK2, Homo sapiens, UniProt P29597) | 100% |
| MAST1 (Homo sapiens, UniProt Q9Y2H9) | 100% |
| NTRK1 (Homo sapiens, UniProt P04629) | 90% |
| NEK9 (Homo sapiens, UniProt Q8TD19) | 100% |
| IRAK4 (Homo sapiens, UniProt Q9NWZ3) | 83% |
| TLK1 (Homo sapiens, UniProt Q9UKI8) | 100% |
| Tyrosine-protein kinase ABL1, phosphorylated (ABL1, Homo sapiens, UniProt P00519, T315I) | 69% |
| CDK3 (Homo sapiens, UniProt Q00526) | 100% |
| MAP3K2 (Homo sapiens, UniProt Q9Y2U5) | 99% |
| MAPK12 (Homo sapiens, UniProt P53778) | 100% |
| RET (Homo sapiens, UniProt P07949) | 100% |
| CASK (Homo sapiens, UniProt O14936) | 93% |
| RPS6KB1 (Homo sapiens, UniProt P23443) | 75% |
| MAP3K13 (Homo sapiens, UniProt O43283) | 100% |
| PIK3CA (Homo sapiens, UniProt P42336, C420R) | 84% |
| PRKD2 (Homo sapiens, UniProt Q9BZL6) | 100% |
| Tyrosine-protein kinase ABL1, non-phosphorylated (ABL1, Homo sapiens, UniProt P00519, Q252H) | 100% |
| MAPK9 (Homo sapiens, UniProt P45984) | 99% |
| PIK3CG (Homo sapiens, UniProt P48736) | 85% |
| LCK (Homo sapiens, UniProt P06239) | 100% |
| PDPK1 (Homo sapiens, UniProt O15530) | 95% |
| PIM2 (Homo sapiens, UniProt Q9P1W9) | 100% |
| PRKAA2 (Homo sapiens, UniProt P54646) | 66% |

Set 2
Target: Diamine acetyltransferase 1 (Homo sapiens, UniProt P21673)
Mode: inhibitor
Concentration: 10 µM
Reference: control
Residues (P21673 1-171): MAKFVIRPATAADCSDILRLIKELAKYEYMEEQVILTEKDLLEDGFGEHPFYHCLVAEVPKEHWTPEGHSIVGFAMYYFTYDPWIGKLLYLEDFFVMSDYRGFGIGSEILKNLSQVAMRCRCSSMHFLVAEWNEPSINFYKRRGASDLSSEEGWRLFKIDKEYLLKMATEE
| Structure (SMILES) | remaining activity |
| --- | --- |
| O=C(/C=C/c1ccc(O)cc1)c1ccc(O[C@@H]2O[C@H](CO)[C@@H](O)[C@H](O)[C@H]2O)cc1O | 85.8% |
| O=C1CC[C@@H](C(=O)O)N1 | 85.4% |
| CCCCC/C=C\C/C=C\CCCCCCCC(=O)O | 89.4% |
| C=C1CC[C@H](O)C/C1=C/C=C1\CCC[C@]2(C)[C@@H]([C@H](C)CCCC(C)C)CC[C@@H]12 | 108% |
| CCCCC1OC(=O)c2ccccc21 (stereo not drawn) | 87.1% |
| CC1=CC=CC(C)(C)CC1=O | 114% |
| COc1cc(OC)c2c(=O)cc(-c3ccc(O)c(O)c3)oc2c1 | 91.9% |
| O=c1cc(-c2ccccc2)oc2cc(O)cc(O)c12 | 100% |
| CCCSSC | 90.2% |
| COc1cc([C@@H]2OC[C@@H]3[C@H]2CO[C@H]3c2cc(OC)c(O[C@@H]3O[C@H](CO)[C@@H](O)[C@H](O)[C@H]3O)c(OC)c2)cc(OC)c1O | 94.4% |
| NC(N)=NCCCC(N)C(=O)O (racemic) | 102% |

Set 3
Structure (SMILES): CC(C)S(=O)(=O)c1ccc2nccc(Nc3ccc4sc(C5CCCC5)nc4c3)c2c1
Observed: enzyme activity
Mode: inhibitor
Concentration: 1 µM
| target | activity vs control |
| --- | --- |
| CHUK (Homo sapiens, UniProt O15111) | 112% |
| EPHA4 (Homo sapiens, UniProt P54764) | 114% |
| MAPKAPK5 (Homo sapiens, UniProt Q8IW41) | 93% |
| PRKCG (Homo sapiens, UniProt P05129) | 100% |
| CDKL4 (Homo sapiens, UniProt Q5MAI5) | 85% |
| CSNK1E (Homo sapiens, UniProt P49674) | 95% |
| PHKG2 (Homo sapiens, UniProt P15735) | 94.5% |
| AKT2 (Homo sapiens, UniProt P31751) | 89% |
| STK24 (Homo sapiens, UniProt Q9Y6E0) | 112% |
| MAP2K3 (Homo sapiens, UniProt P46734) | 99% |
| PRKACA (Homo sapiens, UniProt P17612) | 99% |
| WEE1 (Homo sapiens, UniProt P30291) | 108% |
| EEF2K (Homo sapiens, UniProt O00418) | 100% |

Set 4
Structure (SMILES): Nc1ncnc2c1cnn2-c1ccccc1
Observed: enzyme activity
Mode: inhibitor
Concentration: 0.5 µM
Reference: control
| target | remaining activity |
| --- | --- |
| WNK3 (Homo sapiens, UniProt Q9BYP7) | 97.2% |
| STK17A (Homo sapiens, UniProt Q9UEE5) | 102% |
| PHKG1 (Homo sapiens, UniProt Q16816) | 94.2% |
| MAPKAPK3 (Homo sapiens, UniProt Q16644) | 96.6% |
| RPS6KA5 (Homo sapiens, UniProt O75582) | 89% |
| DYRK3 (Homo sapiens, UniProt O43781) | 96.8% |
| CAMK2B (Homo sapiens, UniProt Q13554) | 97.8% |
| EPHB4 (Homo sapiens, UniProt P54760) | 103% |
| HIPK2 (Homo sapiens, UniProt Q9H2X6) | 103% |
| Cyclin-dependent kinase 6, with cyclin D3 (CDK6, Homo sapiens, UniProt Q00534) | 92.2% |
| Cyclin-dependent kinase 1, with cyclin B (CDK1, Homo sapiens, UniProt P06493) | 102% |
| BLK (Homo sapiens, UniProt P51451) | 100% |
| Cyclin-dependent kinase 4, with cyclin D3 (CDK4, Homo sapiens, UniProt P11802) | 94% |
| SRMS (Homo sapiens, UniProt Q9H3Y6) | 104% |
| STK16 (Homo sapiens, UniProt O75716) | 94.3% |
| EPHA4 (Homo sapiens, UniProt P54764) | 96.2% |
| AXL (Homo sapiens, UniProt P30530) | 110% |
| PDPK1 (Homo sapiens, UniProt O15530) | 104% |
| MAP4K4 (Homo sapiens, UniProt O95819) | 94.4% |
| RPS6KA6 (Homo sapiens, UniProt Q9UK32) | 94.1% |
| EPHB1 (Homo sapiens, UniProt P54762) | 97.5% |
| TSSK2 (Homo sapiens, UniProt Q96PF2) | 106% |
| HIPK4 (Homo sapiens, UniProt Q8NE63) | 86.3% |

Excerpt of the above (set 4):
| target | remaining activity |
| --- | --- |
| CAMK2B (Homo sapiens, UniProt Q13554) | 97.8% |
| EPHB4 (Homo sapiens, UniProt P54760) | 103% |
| HIPK2 (Homo sapiens, UniProt Q9H2X6) | 103% |
| Cyclin-dependent kinase 6, with cyclin D3 (CDK6, Homo sapiens, UniProt Q00534) | 92.2% |
| Cyclin-dependent kinase 1, with cyclin B (CDK1, Homo sapiens, UniProt P06493) | 102% |
| BLK (Homo sapiens, UniProt P51451) | 100% |
